Measurements collected from several papers.
Compare with care: the assays were run in different laboratories. ± marks the error that the study gave.
B1: enzyme (Bacillus pumilus, UniProt A8FFI9); chain EARSIAWSVDEFFKNREGTFVIQEVKEKSPWVYNKKRAKERFAPQSTFKVANALIGLQTGAVRDEYDIKYWDGVKREIDNWNRDHTLGSGMRDSVVWYYQAMARDIGEERMNHWVKAIHYGNKDISGGIDQFWLSSTLRISPIEQVRFLKQLYEETLPFDLKNMRTVKRMMVQEEEKHATLYGKTGSGSDIGWYVGFIKHEHKTYILATNIKGTGIEAKDITYRILKKYHLMEASV
UniProt P08246, sequence (whole entry, looked up): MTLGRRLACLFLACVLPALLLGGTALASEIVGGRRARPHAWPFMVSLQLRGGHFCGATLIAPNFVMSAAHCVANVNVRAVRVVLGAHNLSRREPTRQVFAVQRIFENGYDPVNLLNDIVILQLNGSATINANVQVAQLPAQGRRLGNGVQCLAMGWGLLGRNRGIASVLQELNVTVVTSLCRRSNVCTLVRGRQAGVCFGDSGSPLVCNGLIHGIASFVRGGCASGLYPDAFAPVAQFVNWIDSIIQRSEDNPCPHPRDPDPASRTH
UniProt O60656, sequence (whole entry, looked up): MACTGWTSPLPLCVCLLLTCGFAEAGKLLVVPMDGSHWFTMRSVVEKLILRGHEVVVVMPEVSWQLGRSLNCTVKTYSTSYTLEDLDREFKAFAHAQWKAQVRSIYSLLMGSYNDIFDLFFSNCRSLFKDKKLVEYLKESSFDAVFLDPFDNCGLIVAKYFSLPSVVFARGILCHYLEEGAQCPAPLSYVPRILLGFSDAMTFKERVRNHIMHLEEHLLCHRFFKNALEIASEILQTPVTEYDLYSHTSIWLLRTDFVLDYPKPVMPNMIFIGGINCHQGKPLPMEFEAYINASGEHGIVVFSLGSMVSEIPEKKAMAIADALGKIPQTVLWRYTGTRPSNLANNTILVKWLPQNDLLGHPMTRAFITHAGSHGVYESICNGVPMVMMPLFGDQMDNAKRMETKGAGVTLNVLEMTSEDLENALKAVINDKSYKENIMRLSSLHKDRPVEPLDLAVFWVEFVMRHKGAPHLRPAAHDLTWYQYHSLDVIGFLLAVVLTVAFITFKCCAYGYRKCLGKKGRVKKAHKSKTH
UniProt P00760, sequence (whole entry, looked up): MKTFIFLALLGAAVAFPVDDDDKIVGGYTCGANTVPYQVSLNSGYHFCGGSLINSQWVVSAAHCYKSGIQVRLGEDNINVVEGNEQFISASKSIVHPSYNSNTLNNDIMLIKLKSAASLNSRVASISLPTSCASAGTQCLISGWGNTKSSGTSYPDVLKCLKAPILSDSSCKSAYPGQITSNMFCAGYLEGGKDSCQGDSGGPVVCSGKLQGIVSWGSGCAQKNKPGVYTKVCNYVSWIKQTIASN

CC(C)[C@H](NC(=O)[C@@H]1CCCN1C(=O)[C@H](CCCNC(=N)N)NC(=O)[C@H](CS)NC(=O)[C@H](Cc1c[nH]c2ccccc12)NC(=O)[C@H](CCCNC(=N)N)NC(=O)[C@@H](Cc1ccccc1)NC(=O)[C@H](Cc1c[nH]cn1)NC(=O)[C@H](CCC(=O)O)NC(=O)[C@H](CS)NC(=O)[C@H](CS)NC(=O)[C@H](CCCCN)NC(=O)[C@@H]1CC(=O)N[C@@H](CCCNC(=N)N)C(=O)N[C@@H](C)C(=O)N[C@@H](CC(=O)O)C(=O)N[C@H](Cc2ccc(O)cc2)C(=O)N1)C(N)=O [technetium-99m labelled]  tissue uptake (C57 mice, spleen; intravenous, 0.037 MBq, 2 h): 0.48 ± 0.21 %ID/g
CARLSLSWRGLTLCPSK (68Ga-DOTA-labelled)  uptake (mouse VAP-1; ex vivo biodistribution; peptide, wild-type mouse, B16 melanoma xenograft, liver; 60 min, together with: 500-fold excess unlabelled DOTA-peptide): 0.74 ± 0.08 SUV
insulin human  half-life (Serine protease 1 (PRSS1, Bos taurus, UniProt P00760); proteolytic degradation, RP-HPLC; 15 µM, pH 7.4, 37 °C): 0.43 h
NCC(F)(F)C(F)(F)C(F)(F)C(F)(F)C(F)(F)C(F)(F)F  kcat (Neutrophil elastase (ELANE, Homo sapiens, UniProt P08246); substrate; pH 7.5, together with: 20 pM enzyme): 2.37 s⁻¹
UGT1A9 (Homo sapiens, UniProt O60656)  Vmax (CCN(CC)C(=O)/C(C#N)=C/c1cc(O)c(O)c([N+](=O)[O-])c1; steady-state kinetics; pH 7.4, 37 °C): 0.0884 µmol/min/mg
rnpA F107W (Bacillus subtilis)  pKa (NMR, refers to: His3; 25 °C, Na2SO4 20 mM): 6.31
B-type natriuretic peptide (human)  loss of biological activity (293 cells expressing NPR-A; cGMP radioimmunoassay; human kidney membranes; concentration not given, 20 min, 37 °C): 85%
B1 (enzyme)  kcat/Km (CC(C)(O/N=C(\C(=O)N[C@@H]1C(=O)N2C(C(=O)[O-])=C(C[n+]3ccccc3)CS[C@H]12)c1csc(N)n1)C(=O)O; steady-state kinetics; pH 7): 8100 ± 600 M⁻¹ s⁻¹
insulin lispro  tmax (human, type 1 diabetes; subcutaneous, FAST PK setting, carbohydrate interventions required): 1.62 h
